Published values pooled from the literature.
A part holds a random share of what one study measured. Changes are numbered by the printed parent chain.

Series 1
Target: ABI1, truncated, D143A, DHFR fusion (Arabidopsis thaliana)
Technique: DHFR PCA, deep sequencing
Sample: yeast
Notes: methotrexate growth selection, single substitutions
Added: (+)-ABA 0 µM
Relative to: wild-type fitted maximum
Reading: higher = stronger binding
Quantity: relative binding score
Parent: PYL1, truncated, DHFR fusion (Arabidopsis thaliana); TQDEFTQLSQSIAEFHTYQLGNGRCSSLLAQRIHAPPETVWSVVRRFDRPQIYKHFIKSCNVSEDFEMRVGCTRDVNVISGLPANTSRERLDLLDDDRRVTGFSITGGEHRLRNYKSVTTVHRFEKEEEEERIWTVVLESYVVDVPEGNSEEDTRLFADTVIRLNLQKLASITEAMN
Q7D: 20.3%
S42C: 1.38%
E151K: 28.2%
E14M: 3.2%
Y115E: 5.92%
L94N: -3.72%
I79Q: 0.131%
K126N: 42.5%
V136D: 5.24%
D48A: -2.36%
F124G: 10.8%
W134E: 29.6%
D96F: -7.15%
S117T: 0.213%
S9C: 10.6%
L93W: -5.32%
R111P: 21.8%
P37L: 1.47%
A175S: 23.4%
V143M: -0.337%
L164V: 9.9%
S80P: -0.334%
R113N: 11.9%
T1P: 25%

Series 2
Target: Histone acetyltransferase KAT6A, winged helix 2, GST fusion (KAT6A, Homo sapiens, UniProt Q92794, residues 85-181)
Technique: protein binding microarray
Molecule type: double-stranded DNA, one strand shown
Sample: in vitro
Concentration: not given
Notes: 8-mer, flanks averaged, mean of 2 arrays, mostly near background
Relative to: not given
Reading: higher = stronger binding
Quantity: E-score
Construct (chain): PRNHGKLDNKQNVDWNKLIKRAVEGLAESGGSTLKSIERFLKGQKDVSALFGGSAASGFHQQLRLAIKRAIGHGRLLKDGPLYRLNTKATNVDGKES
ATTTAGAC: -0.028
GAATCTCA: -0.0838
ACCAAGAC: 0.00257
GACAAGCC: 0.0423
AGCTATTA: -0.134
CGTGAGAC: -0.00582
AAACATGA: -0.127
CTGGGCAC: 0.049
ATCGCACG: -0.0796
CGTCGTAG: -0.0365
CCACGAGG: 0.109
AACCGTTA: -0.224
TATTGCAA: -0.0274
CACCTATG: -0.199
CCTCTCGA: -0.0876
TGAGATAA: -0.0643

Series 3
Target: CCNA1, cyclin fold, Cln2 fusion (human)
Technique: yeast growth competition, sequencing
Sample: yeast
Notes: weak parent motif
Relative to: not given
Reading: higher = stronger binding
Quantity: normalised enrichment score
Parent: WEE1 docking peptide (human); HKTFRKLRLFDTP; partner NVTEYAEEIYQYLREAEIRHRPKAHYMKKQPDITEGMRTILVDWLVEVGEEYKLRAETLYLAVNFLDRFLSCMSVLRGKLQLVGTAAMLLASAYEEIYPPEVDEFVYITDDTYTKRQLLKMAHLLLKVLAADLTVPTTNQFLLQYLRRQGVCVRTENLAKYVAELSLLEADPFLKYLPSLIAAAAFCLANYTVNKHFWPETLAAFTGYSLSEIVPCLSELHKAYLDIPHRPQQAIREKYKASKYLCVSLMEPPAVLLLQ
K6P: 0.469
F4K: 0.263
T3Y: -0.5
L7R: 0.187
K2V: 0.189
R5L: 0.332
F10Y: 0.215
R5T: 0.233
T3F: -0.141
K2N: 0.393
F10G: 0.181
K6L: 0.148
T3P: 0.261
L9W: 0.0643
F4N: 0.298
T12P: 0.165
H1M: 0.204
F10C: 0.0934
R8N: 0.085
F4G: 0.296
L7W: 0.276
L9R: 0.175
R8Q: 0.436
L9Y: 0.618
P13D: 0.336

Series 4
Target: Interferon regulatory factor 5, full length, phosphomimetic (IRF5, Homo sapiens, UniProt Q13568-2, residues 1-514, S451D/S453D/S456D/S462D)
Technique: protein-binding microarray
Molecule type: double-stranded DNA, one strand shown
Sample: in vitro
Concentration: 940 nM top
Notes: 60-bp whole probe
Added: salmon DNA 0.4 mg/ml
Relative to: random background probes
Reading: higher = stronger binding
Quantity: fitted relative affinity
All sequences stand within: GCCTAGCAC … GTCTTGATTCGCTTGACGCTGCTG
GACCATATCGGGTATCGAGACGTGCTA: 0.685 z-score
TTAGGATTCGGGTTTCGGTTAGTGCTA: 6.21 z-score
GACGGACTGGACTTTCGGGATGTGCTA: 0.239 z-score
TCACTTCTGCATTACAGACTGTGCTAG: 0.105 z-score
GACGATTTCAGTTTCGAGGCGTGCTAG: 5.01 z-score
CACAACCAAACAAGAAGATGGTGCTAG: -0.276 z-score
ATGCATTGTTATTTGTCAATGTGCTAG: 0.179 z-score
TTAGAACTGCGACTGGATTAGTGCTAG: -0.329 z-score
TTAGGTCTGGGTATCGGTTAGTGCTAG: 3.6 z-score
GACGAACTGAGTTTCGATACGTGCTAG: 8.22 z-score
GTGACTCTGAACCTTCAGCTCGTGCTA: -0.281 z-score
TTGGGTATCGGGTATCGGTTAGTGCTA: 6.72 z-score
GACGGTATCCTTCGCCTGACGTGCTAG: 0.266 z-score
GACGGACTGGGGTTTGGGGACGTGCTA: -0.226 z-score
TTAGACCTGAGTCTCGATTAGTGCTAG: 2.56 z-score
TCACTAATAAATATGAGACTGTGCTAG: 0.484 z-score
TTAGGTCTCGGGCTCGGTTAGTGCTAG: 1.55 z-score
GAGGATATCAGTCTCGAGACGTGCTAG: 0.908 z-score
TCATTTTTTTTTTTTTCACTGTGCTAG: 1.49 z-score
GACGGTCTCCTTTTCTTGACGTGCTAG: 1.06 z-score

Series 5
Target: RNA binding protein fox-1 homolog 2, RRM domain, GST-SBP tag (RBFOX2, Homo sapiens, UniProt O43251-10, residues 100-194)
Technique: RNA Bind-n-Seq
Molecule type: RNA
Sample: in vitro
Concentration: 365 nM
Notes: natural RNA segment, single round, ends assumed
Relative to: no-protein control
Reading: higher = stronger binding
Quantity: RBNS enrichment (R)
All sequences stand within: GGGAGUUCUACAGUCCGACGAUC … UGGAAUUCUCGGGUGCCAA
Construct (chain): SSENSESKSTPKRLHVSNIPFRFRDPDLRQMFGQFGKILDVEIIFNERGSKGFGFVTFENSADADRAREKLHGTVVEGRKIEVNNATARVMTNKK
AUCACAAGCAAAAGGUCAGAACAGUUAAACACUGCCUUUCCUCCUCCUCUUAUUUUAUGAUAAAAGCAAAUGUGGCCUUCUCAGUAUCAUUCGAUUGCUAUUUGAGACUU: 0.239
CCUGUUCACUUACUGUAUAAUUUAAAAUCAUUUAUGUAGCUGAGACACUUUGAUACUUCAAUUAUAUCGUGAAUGUUUUAUUUUGCUAAAUCAUGUGCCAUGUGUAGGCU: 1.09
UCCUCUGAUGUCAGCGUAUUAGUCUCAGUUUACAAAGUACUUAAUAAAACUAACUACUGUAAAACCAUGGAUCAUUUCUUUAGAGUGGUCUUUAGAGCAACAGGCAUUUG: 0.336
GAGUUGGCAAGCUUAACAAAACCCAUUUUUUAUAAAUGUCCAUCCUCCUGCAUUUGUUGAUACCACUAACAAAAUGCUUUGUAACAGACUUGCGGUUAAUUAUGCAAAUG: 0.406
UAUAAUUUAAGGUAUUUAUGUUCUUCUCUGUGAGAAGGUUUAUUGUUAAUACAAGGUAUAAAAAACACAUGAUAUGCCCUCUCCUGCCAAUAUAACCAGCUAAUAUUGUC: 0.416
CACUAGGACCCUGUUGUAUCCUCAACUGCAAGUUUCUGGACUAGUCUCCCAACGUUUGCCUCCCAAUGUUGUCCCUUUCCUUCGUUCCCAUGGUAAAGCUCCUCUCGCUU: 1.26
CCUGUUCCCCAGAGUUGUCCCUGUAGUGUCUAGGUUUAUUCUAAUGGUAAAAGUAACUUACUUAAAAAACAUAUGUACACAUAUGUAUGCAAGUAUGUAUAUAUGUGUAU: 1.09
UAUAUAUAUUUAAGUACAGUUUUCAUCAGGAGGUUUUAAAGGCCAUAUUGCUAACCUCACCAAAAGGUUUCGGGAACUGGAGGAAGUAUUAAUGUACAACUCACCACUUC: 0.471
UGAUGGGAACAAGAGUAUGAUGUGCUUGGUAUCUGGCUUUUCCCCAAGCAGUCGAUGUCAAGGUUACGACACCAGUGACAGAGCAUGGUUUGGAAAUCCUUUAUUCUCUU: 2.89
CAGUUGCUGAGCCUGCUCGUGAACACCAUUGCAAGCCAUUGCUGUCAAGCUUCAUGAGUUAAAUUUAACUGUUAGAGAGGAGAAAAGCAUAGCAGUCAUUUGGAACGAUC: 0.424
GGGGUCCCAAGGUUGCCACCCACGUGCCCAGCUGUCCCACGCUGCAGCGCAGACGGCCACGCCCACACCCGGCCUUUUAGCUCAGGUCCACCAUGGGGGACGGCCCAGCG: 0.448
ACCCUUUUUAAAUCACAGAAAUAAAGUUUCAGUUGUCUCAAGAGACAUUAAUCAGGAAUACAGAAUGCAGGUCUUCACAUUUACAGGAAGAGCACCUUGUAUAGUAGGUC: 0.442

Mixed results
PhoQ, residues 284 288 289 292 302 303 AGGCYF  fold induction (PhoP, residues 12 14 15 18 19 YHFSH (Escherichia coli, UniProt P23836); Sort-seq, refers to: YFP reporter; E. coli; PhoQ-PhoP variant library, added: 10 µM Mg2+; relative to: high Mg2+ state, higher = stronger signaling): 10.7

Some of these lines once more (series 4):
ATGCATTGTTATTTGTCAATGTGCTAG: 0.179 z-score
TTAGAACTGCGACTGGATTAGTGCTAG: -0.329 z-score
TTAGGTCTGGGTATCGGTTAGTGCTAG: 3.6 z-score
GACGAACTGAGTTTCGATACGTGCTAG: 8.22 z-score
GTGACTCTGAACCTTCAGCTCGTGCTA: -0.281 z-score
TTGGGTATCGGGTATCGGTTAGTGCTA: 6.72 z-score
GACGGTATCCTTCGCCTGACGTGCTAG: 0.266 z-score
GACGGACTGGGGTTTGGGGACGTGCTA: -0.226 z-score
TTAGACCTGAGTCTCGATTAGTGCTAG: 2.56 z-score
TCACTAATAAATATGAGACTGTGCTAG: 0.484 z-score
